Results collected from several papers.
Numbered parts are unrelated; each lists some results of a single study.

Sample 1 — technique: DNA-protein interaction ELISA; form: double-stranded DNA, one strand shown; sample: in vitro, bacterial lysate; concentration: not given; setting: whole dsDNA probe, crude lysate protein; reference: highest signal in screen; reading: higher = stronger binding; quantity: relative absorbance
Target: Probable WRKY transcription factor 11, DNA-binding domain (WRKY11, Arabidopsis thaliana, UniProt Q9SV15, residues 228-325)
Residues (chain): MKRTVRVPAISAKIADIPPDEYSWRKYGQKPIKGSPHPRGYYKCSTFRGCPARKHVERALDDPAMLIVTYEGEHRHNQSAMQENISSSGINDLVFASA
Oligonucleotide = AAAAAACTGTCTGTCCTATATCACTTAAAA; value = 17 % of maximum
Oligonucleotide = AAAAAATCATTTTATTTTGCCTTTCTAAAA; value = 13.5 % of maximum
Oligonucleotide = AAAAAAAGGGTGCTATTCGTCGACACAAAA; value = 15.3 % of maximum
Oligonucleotide = AAAAAATTTTGTGGTGTTTCGCCACCAAAA; value = 19.6 % of maximum
Oligonucleotide = AAAAAATGTCTTCTTACACCCTCTAGAAAA; value = 18.2 % of maximum
Oligonucleotide = AAAAAAGTTATTATACCTGATCTCGCAAAA; value = 13 % of maximum
Oligonucleotide = AAAAAAACCGATTACCATTTTTACTGAAAA; value = 17 % of maximum
Oligonucleotide = AAAAAAACATCCACACCCGCGGCGCGAAAA; value = 13.3 % of maximum

Sample 2 — technique: RNA Bind-n-Seq; form: RNA; sample: in vitro; concentration: 365 nM; reference: no-protein control; reading: higher = stronger binding; quantity: RBNS enrichment (R)
Target: RNA binding protein fox-1 homolog 2, RRM domain, GST-SBP tag (RBFOX2, Homo sapiens, UniProt O43251-10, residues 100-194)
Setting: natural RNA segment, single round, ends assumed
Constant ends, left off below: GGGAGUUCUACAGUCCGACGAUC … UGGAAUUCUCGGGUGCCAA
Construct (chain): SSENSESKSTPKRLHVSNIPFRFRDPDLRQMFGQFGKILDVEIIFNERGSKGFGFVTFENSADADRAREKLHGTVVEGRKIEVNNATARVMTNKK
Oligonucleotide = CCUUUCAGCAUCCUAGGAAUUUUUAUACUAAAAGCAAAAUGUUUUUUCCAGUUAGUCUUCUUCAAGGAAUUACUAUUGUUCCUUUUGUCACAGGUAAAAUCAGUGUUGGG; value = 0.496
Oligonucleotide = GCCAUUGCGGAGCUGCCCUCUUGAGUCUUUCUGUCCAUCCCAUUCUAUUCUGUACUGUGACUUUAGUUCAGGAAGUUUUGUUUUGUGUUUUAAAUAAAAGGAAAGAGCAA; value = 0.3
Oligonucleotide = ACAGUGUUGCCCAGGUCAGGAGUGUUUUCUUGGUGGUUCCAGCCCCCAUCAAUUGAACUGUUUCUGGGCUCAGUCAGACACAGACAUUCAUCUGUGUCUGACCAAAUCAG; value = 0.304
Oligonucleotide = AUUUCAGUUGCUAUAUCAUAAGCAUUUUUAAAGUUUCUUUUCUAAUUUUACAUUGUAUUAGAUUUUCUGAUUCUUUUGUAAAUACAGAACUUAAAUAGAAGGCAACAGGA; value = 0.869
Oligonucleotide = GCAUGCAGAGGUCUUCAGUCUUGCUUAUUCUUCUCCUGGGCUUCUUGACACAGGGGCAGAAGAAACCCCAGAUGUCCCAGAUGUCCCAGAACAUCAGCCCAAAAGACAGA; value = 8.41
Oligonucleotide = CCAUGUGGGAGGCCAAGGAGGCUGCAGUGAGACUCUUCCACGGAACCAUGACGCUAGUGCAGUGACAGCCUGUGUCACGGCCGUGUUGAGGGGUCCCAGCAGAGGCCUGU; value = 0.415
Oligonucleotide = AUAAUGUAUGUACCUUUUCCAGACUGAAGUUCAAAGAAUGAUUAGGUUCAAUCUUUCAGUGGCAGGCCAGCUAAACUUUCUAUAGUUUAAUGAUUAGCUGUGGUUAUGAU; value = 0.503

Sample 3 — technique: RNA Bind-n-Seq; form: RNA; sample: in vitro; concentration: not given; reference: input RNA pool; reading: higher = stronger binding; quantity: bound/input enrichment
Target: RING finger protein unkempt homolog, zinc fingers 1-6, GST-SBP tag (UNK, Homo sapiens, UniProt Q9C0B0, residues 30-357)
UniProt Q9C0B0, sequence (30-357, looked up): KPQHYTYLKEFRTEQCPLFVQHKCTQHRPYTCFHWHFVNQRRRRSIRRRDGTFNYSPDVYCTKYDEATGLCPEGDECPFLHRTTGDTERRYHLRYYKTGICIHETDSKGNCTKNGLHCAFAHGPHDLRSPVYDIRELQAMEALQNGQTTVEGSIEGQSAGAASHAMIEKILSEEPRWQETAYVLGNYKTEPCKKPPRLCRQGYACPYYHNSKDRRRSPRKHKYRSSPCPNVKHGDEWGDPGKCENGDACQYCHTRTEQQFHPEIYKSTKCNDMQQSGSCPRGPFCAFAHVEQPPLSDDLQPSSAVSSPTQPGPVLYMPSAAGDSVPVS
Setting: RNA with constant flanks, human-mouse chimeric sites, ends assumed
Oligonucleotide = GGGAGUUCUACAGUCCGACGAUCGAAUCCUACUCAGGCGGUCCCACAACAACCAAGCUCACAGCAGCAGCAUCUUAGUCACAGUAGGGUAGUUUUGGGGCUCUGUGGCCAUGGUUUUACUCACAUGCAGGUUUGGAAAAUGUACAACAGAGGAUUGAGCAUCA; value = 1.03 ratio
Oligonucleotide = GGGAGUUCUACAGUCCGACGAUCGGCCUGGGACCGUCCUGGGCUAGUACAAAUAGCGGCAGUGGAGGCUCGAGAGGAAAGUUGUUAGUGGGAGGCAGUGGUAGAGGCCGUCAUGUACGGUCCUUUACUCGAUAGAUGUGUUCUCAACAGAGGAUUGAGCAUCA; value = 0.574 ratio
Oligonucleotide = GGGAGUUCUACAGUCCGACGAUCGGACAUCUGUCAAAUUGUAUUUCCCGUGUGAAACAAGUGAACACUCUGAUACACUUCAUCUGCUUGUACAUCUGUAUGAUAGAGAAAUGUAAAUAUGUUAAUCCAAGCAAUGUGUCACUUCAACAGAGGAUUGAGCAUCA; value = 0.271 ratio
Oligonucleotide = GGGAGUUCUACAGUCCGACGAUCCUGAGGAUACCACUGAAGAGACCUUAAAAGAAUCAUUUUGACGGCUCGUUCGUGCAAGAAUAGUCACUGAUCGGGAAACUGGUUCUUCCAAAGGGUUUGGUUUUGUAGACUUUAAUAGUGCAACAGAGGAUUGAGCAUCA; value = 0.763 ratio

Further values, each from its own experiment
Molecule = PhoQ, residues 284 288 289 292 302 303 SCCLKL; target = PhoP, residues 12 14 15 18 19 LYFRQ (Escherichia coli, UniProt P23836); assay = Sort-seq, item: YFP reporter; test system = E. coli; conditions = PhoQ-PhoP variant library, added: 10 µM Mg2+; scale = reference: high Mg2+ state, higher = stronger signaling; quantity = fold induction; value = 2.23

Some of these lines once more (sample 1):
Oligonucleotide = AAAAAACTGTCTGTCCTATATCACTTAAAA; value = 17 % of maximum
Oligonucleotide = AAAAAATCATTTTATTTTGCCTTTCTAAAA; value = 13.5 % of maximum
Oligonucleotide = AAAAAAAGGGTGCTATTCGTCGACACAAAA; value = 15.3 % of maximum
